Measured values from different studies.
Parts stem from different laboratories: compare values within a part only.

Sample 1
Target: Interferon regulatory factor 7, full length, phosphomimetic (IRF7, Homo sapiens, UniProt Q92985, residues 1-503, S471D/S472D/S475D/S476D/S477D/S483D/S484D/S487D)
Sequence of UniProt Q92985 (whole entry, unmodified, looked up): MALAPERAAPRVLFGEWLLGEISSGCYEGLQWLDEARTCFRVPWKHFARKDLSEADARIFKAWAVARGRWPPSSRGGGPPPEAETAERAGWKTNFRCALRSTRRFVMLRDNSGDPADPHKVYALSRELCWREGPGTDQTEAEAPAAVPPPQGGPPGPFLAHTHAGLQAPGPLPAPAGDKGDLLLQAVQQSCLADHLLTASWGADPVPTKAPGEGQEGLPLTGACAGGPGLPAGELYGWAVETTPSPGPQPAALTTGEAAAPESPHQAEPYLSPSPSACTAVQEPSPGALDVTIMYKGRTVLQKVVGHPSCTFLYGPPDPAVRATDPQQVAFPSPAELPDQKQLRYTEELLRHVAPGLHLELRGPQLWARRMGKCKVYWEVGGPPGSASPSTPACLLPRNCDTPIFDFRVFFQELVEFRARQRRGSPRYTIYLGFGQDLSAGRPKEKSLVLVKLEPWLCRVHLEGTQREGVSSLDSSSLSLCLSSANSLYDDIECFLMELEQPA
Method: protein-binding microarray
Molecule type: double-stranded DNA, one strand shown
Sample: in vitro
Tested at: 2200 nM top
Setting: 60-bp whole probe
With: salmon DNA 0.4 mg/ml
Relative to: random background probes
Direction: higher = stronger binding
Constant ends, left off below: GCCTAGCAC … GTCTTGATTCGCTTGACGCTGCTG
`GACGGTATCCGTATCGGGACGTGCTAG` — result for “fitted relative affinity”: 0.0807 z-score.
`GACGATCTCAGACTGGAGAGGTGCTAG` — result for “fitted relative affinity”: -0.266 z-score.
Under “fitted relative affinity”, `GACGATATCGGGAATGGAGACGTGCTA` is recorded as -0.253 z-score.
Under “fitted relative affinity”, `TTAGAACTGAGGATCGATTAGTGCTAG` is recorded as -0.735 z-score.
Under “fitted relative affinity”, `GACGGACTGGCGACTGGGGACGTGCTA` is recorded as -0.755 z-score.
For `TTAGGCTTCCTTATCCTTTAGTGCTAG`, “fitted relative affinity” read 0.787 z-score.
`TTAGGTATCGACACGGGGTTAGTGCTA` — result for “fitted relative affinity”: -0.0862 z-score.
`TACGGTCTCCTACTGCTGACGTGCTAG` — result for “fitted relative affinity”: 0.945 z-score.
`ATGTAATTCCTGCCTGAGCTCGTGCTA` — result for “fitted relative affinity”: 0.779 z-score.

Sample 2
Target: Histone acetyltransferase KAT6A, winged helix 2, GST fusion (KAT6A, Homo sapiens, UniProt Q92794, residues 85-181)
Method: protein binding microarray
Molecule type: double-stranded DNA, one strand shown
Sample: in vitro
Tested at: not given
Setting: 8-mer, flanks averaged, mean of 2 arrays, mostly near background
Relative to: not given
Direction: higher = stronger binding
Residues (chain): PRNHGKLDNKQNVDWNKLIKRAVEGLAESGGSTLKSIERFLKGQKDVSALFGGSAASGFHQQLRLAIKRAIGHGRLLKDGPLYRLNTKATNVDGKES
`AGGTTACC` has an E-score of 0.0321.
For `CGAGTCAC`, the E-score was -0.0433.
The E-score of `ACATCAGA` is reported as -0.085.
The E-score of `CTCCTATA` is reported as -0.151.
`GTCTGCAA` has an E-score of -0.0333.
`AATCACTC` gave an E-score of -0.0522.
`CGAGCTTC` gave an E-score of 0.0982.
`CTAGGGTC` has an E-score of -0.102.
`AAGAATCC` has an E-score of -0.0349.

Further values, each from its own experiment
With `PhoQ, residues 284 288 289 292 302 303 AMDMFI` the fold induction was 0.569 (PhoP, residues 12 14 15 18 19 NHTVL (Escherichia coli, UniProt P23836); Sort-seq, item: YFP reporter; E. coli; PhoQ-PhoP variant library, with: 10 µM Mg2+; relative to: high Mg2+ state, higher = stronger signaling).
`GSALKKLFTSTGL` gave an enrichment score of -1.14 (Saccharomyces cerevisiae; peptide binding, yeast competitive growth sequencing; peptide, cyclin E2-Cln2 fusion; library 1; direction not given).

A few entries again (sample 2):
The E-score of `ACATCAGA` is reported as -0.085.
`CGAGCTTC` gave an E-score of 0.0982.
